Results pooled from the literature.
Lines come from different studies, so protocols differ. “And” joins repeats or separate records; there may be more than shown. ± gives the spread as reported.
PDE4D: 3',5'-cyclic-AMP phosphodiesterase 4D (PDE4D, Homo sapiens, UniProt Q08499)
UniProt P30874, sequence (whole entry, looked up): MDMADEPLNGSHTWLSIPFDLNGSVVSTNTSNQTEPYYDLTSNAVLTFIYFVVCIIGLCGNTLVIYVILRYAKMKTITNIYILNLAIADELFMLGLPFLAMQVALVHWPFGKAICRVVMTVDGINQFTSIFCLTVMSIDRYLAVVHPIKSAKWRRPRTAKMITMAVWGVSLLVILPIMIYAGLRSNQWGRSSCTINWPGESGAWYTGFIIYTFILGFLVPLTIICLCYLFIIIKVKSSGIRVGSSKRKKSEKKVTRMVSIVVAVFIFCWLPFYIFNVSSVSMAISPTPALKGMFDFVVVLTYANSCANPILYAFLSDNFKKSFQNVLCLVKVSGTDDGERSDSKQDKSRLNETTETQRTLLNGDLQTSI
UniProt Q08499, sequence (whole entry, looked up): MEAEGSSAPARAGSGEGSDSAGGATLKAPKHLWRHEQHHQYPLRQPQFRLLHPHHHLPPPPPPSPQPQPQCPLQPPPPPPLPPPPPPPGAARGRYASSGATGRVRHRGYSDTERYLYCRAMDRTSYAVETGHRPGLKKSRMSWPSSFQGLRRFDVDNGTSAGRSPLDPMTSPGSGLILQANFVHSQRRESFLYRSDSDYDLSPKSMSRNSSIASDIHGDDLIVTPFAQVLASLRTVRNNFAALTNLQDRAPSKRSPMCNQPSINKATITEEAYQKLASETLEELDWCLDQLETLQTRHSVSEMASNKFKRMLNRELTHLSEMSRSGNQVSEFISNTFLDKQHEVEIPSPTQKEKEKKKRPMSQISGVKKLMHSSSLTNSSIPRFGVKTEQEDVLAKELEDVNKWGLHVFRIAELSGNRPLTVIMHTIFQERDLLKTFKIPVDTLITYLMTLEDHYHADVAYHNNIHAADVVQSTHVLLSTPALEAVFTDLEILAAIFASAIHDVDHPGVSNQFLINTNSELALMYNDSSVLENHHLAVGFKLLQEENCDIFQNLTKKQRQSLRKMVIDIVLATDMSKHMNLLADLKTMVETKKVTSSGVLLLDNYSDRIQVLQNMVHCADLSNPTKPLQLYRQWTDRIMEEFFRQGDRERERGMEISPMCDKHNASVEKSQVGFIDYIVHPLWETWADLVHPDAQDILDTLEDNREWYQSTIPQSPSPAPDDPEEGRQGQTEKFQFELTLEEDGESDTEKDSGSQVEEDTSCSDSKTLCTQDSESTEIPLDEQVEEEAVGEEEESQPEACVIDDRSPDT
UniProt Q04760, sequence (whole entry, looked up): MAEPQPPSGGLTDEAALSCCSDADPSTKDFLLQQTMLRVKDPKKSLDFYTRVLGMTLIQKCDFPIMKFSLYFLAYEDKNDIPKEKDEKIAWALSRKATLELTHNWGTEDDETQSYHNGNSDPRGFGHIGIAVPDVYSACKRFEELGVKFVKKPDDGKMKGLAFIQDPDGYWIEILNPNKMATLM
UniProt P30101, sequence (whole entry, looked up): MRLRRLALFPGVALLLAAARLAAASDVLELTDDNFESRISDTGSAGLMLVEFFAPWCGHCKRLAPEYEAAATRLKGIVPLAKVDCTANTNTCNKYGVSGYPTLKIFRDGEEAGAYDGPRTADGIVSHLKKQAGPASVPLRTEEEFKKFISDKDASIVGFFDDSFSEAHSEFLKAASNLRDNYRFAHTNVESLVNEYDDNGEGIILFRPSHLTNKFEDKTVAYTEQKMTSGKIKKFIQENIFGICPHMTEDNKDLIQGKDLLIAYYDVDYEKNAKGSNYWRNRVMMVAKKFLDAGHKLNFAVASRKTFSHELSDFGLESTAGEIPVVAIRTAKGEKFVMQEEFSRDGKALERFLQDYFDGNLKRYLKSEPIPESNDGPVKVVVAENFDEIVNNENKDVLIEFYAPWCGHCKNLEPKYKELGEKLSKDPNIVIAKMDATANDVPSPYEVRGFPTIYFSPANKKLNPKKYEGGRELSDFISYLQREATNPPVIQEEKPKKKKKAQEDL
UniProt Q9BV86, sequence (whole entry, looked up): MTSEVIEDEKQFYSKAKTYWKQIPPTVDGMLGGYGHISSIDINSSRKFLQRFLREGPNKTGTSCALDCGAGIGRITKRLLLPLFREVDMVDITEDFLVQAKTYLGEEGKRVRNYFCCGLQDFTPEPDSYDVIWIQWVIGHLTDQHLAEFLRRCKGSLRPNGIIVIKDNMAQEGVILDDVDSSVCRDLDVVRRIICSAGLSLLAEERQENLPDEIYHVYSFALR
UniProt P24385, sequence (whole entry, looked up): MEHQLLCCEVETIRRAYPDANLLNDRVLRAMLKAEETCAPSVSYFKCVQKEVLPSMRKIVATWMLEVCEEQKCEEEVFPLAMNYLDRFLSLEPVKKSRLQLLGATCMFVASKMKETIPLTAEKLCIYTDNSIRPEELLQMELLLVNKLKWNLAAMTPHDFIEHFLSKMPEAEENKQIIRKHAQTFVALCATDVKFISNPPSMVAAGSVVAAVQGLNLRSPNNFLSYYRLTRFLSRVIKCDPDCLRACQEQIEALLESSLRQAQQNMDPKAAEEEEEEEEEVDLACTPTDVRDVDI
UniProt P21396, sequence (whole entry, looked up): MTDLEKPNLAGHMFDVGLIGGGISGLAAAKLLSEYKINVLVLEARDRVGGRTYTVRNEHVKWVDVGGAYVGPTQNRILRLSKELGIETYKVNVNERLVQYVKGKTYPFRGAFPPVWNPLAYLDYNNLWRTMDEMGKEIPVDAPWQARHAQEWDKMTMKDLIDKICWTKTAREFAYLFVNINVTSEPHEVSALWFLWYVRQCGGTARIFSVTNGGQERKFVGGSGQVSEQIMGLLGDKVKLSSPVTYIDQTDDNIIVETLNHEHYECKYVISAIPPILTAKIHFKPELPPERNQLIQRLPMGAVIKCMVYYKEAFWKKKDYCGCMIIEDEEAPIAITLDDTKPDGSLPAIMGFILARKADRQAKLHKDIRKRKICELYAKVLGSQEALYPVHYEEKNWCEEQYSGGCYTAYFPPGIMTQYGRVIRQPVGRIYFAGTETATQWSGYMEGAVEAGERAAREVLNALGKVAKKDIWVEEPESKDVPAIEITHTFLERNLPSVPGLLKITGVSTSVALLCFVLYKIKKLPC
UniProt P16234, sequence (whole entry, looked up): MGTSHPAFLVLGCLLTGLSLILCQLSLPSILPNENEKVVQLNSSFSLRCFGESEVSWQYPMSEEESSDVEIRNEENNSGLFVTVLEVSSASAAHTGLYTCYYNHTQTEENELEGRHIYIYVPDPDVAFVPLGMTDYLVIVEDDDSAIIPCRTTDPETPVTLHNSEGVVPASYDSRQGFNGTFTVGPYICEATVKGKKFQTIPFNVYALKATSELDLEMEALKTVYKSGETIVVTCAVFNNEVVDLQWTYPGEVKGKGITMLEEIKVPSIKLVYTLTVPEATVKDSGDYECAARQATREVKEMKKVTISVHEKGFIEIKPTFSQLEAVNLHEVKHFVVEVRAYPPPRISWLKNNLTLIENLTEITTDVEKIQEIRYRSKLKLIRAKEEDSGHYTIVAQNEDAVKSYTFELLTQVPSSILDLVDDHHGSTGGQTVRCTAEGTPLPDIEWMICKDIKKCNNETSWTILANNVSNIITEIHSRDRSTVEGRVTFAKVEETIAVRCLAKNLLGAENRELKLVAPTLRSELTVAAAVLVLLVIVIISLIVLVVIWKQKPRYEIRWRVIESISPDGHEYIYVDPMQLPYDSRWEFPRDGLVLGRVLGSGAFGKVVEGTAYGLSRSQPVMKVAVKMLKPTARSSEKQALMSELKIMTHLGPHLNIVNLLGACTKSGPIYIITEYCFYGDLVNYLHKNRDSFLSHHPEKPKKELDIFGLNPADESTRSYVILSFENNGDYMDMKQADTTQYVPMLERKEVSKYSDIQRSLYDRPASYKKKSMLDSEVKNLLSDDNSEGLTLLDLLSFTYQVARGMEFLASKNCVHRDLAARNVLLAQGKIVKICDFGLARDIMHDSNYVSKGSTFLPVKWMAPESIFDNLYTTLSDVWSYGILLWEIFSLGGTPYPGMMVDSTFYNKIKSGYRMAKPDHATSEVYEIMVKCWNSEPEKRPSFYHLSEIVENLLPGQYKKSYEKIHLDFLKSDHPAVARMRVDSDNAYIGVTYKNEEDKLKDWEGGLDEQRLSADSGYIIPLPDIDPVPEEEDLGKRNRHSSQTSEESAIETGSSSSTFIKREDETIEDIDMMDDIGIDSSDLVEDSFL
UniProt Q01650, sequence (whole entry, looked up): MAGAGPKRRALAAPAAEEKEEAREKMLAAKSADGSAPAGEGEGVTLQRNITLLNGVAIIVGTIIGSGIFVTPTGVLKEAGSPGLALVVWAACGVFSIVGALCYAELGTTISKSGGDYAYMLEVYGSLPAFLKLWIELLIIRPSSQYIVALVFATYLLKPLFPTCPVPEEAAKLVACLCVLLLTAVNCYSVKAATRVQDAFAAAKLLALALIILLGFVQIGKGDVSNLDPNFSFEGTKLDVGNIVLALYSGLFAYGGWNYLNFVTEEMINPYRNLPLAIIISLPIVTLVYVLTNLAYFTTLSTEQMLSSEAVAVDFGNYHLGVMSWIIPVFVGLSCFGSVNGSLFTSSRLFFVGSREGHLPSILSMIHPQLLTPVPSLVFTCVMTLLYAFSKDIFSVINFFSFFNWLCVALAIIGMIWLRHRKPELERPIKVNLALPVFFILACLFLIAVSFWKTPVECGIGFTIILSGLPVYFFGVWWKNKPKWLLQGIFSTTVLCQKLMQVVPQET
UniProt P45984, sequence (whole entry, looked up): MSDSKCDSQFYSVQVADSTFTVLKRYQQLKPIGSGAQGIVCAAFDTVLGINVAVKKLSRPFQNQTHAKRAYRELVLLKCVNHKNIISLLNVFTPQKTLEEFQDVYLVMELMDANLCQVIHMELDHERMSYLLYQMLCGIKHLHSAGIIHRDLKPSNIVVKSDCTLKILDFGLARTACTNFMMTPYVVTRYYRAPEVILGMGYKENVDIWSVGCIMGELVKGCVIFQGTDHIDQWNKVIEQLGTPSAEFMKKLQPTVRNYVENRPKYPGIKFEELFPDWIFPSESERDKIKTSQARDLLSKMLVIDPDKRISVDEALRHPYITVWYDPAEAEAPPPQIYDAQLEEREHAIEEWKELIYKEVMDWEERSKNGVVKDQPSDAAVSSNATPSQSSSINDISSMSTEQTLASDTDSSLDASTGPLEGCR

| target | assay | system | setting | IC50 | SMILES |
| --- | --- | --- | --- | --- | --- |
| PDE4D | enzyme activity, inhibitor, fluorescence | – | – | 0.18 µM | Oc1ccc(C#Cc2cccc3c2C(c2ccc(O)cc2)(c2ccc(O)cc2)c2cc(O)ccc2-3)cc1 |
| SSTR2 (Homo sapiens, UniProt P30874) | ligand displacement, radioligand | – | cell membranes | ~0.35 µM and 0.24 µM and 0.665 µM | CC(C)NCc1ccc(C[C@@H]2NC(=O)[C@@H](Cc3c[nH]c4ccccc34)NC(=O)[C@H](Cc3ccc(O)cc3)NC(=O)[C@H](NC(=O)[C@@H](N)Cc3ccc(Cl)cc3)CSSC[C@@H](C(=O)N[C@@H](Cc3ccc4ccccc4c3)C(N)=O)NC(=O)[C@H]([C@@H](C)O)NC2=O)cc1 |
| N-terminal Xaa-Pro-Lys N-methyltransferase 1 (Homo sapiens, UniProt Q9BV86) | enzyme activity, inhibitor, fluorescence | – | – | > 100 µM | N=C(N)NCCCC(N)C(=O)NCC(=O)NC(CCCNC(=N)NCCSCC1OC(n2cnc3c(N)ncnc32)C(O)C1O)C(N)=O (centres unmarked) |
| PDGFRA (Homo sapiens, UniProt P16234) | enzyme activity, inhibitor, ELISA | – | – | > 1 µM | Cc1ccc2oc(-c3c4c(N)n[nH]c(=O)c4nn3-c3ccc(NC(=O)/C=C/CN(C)C)cc3)c(C)c2c1 |
| G1/S-specific cyclin-D1, with CDK4 (Homo sapiens, UniProt P24385) | binding to cyclin groove, inhibitor, fluorescence polarization competition | – | – | 51.5 ± 21.3 µM | CC[C@H](C)[C@H](NC(=O)[C@H](CC(C)C)NC(=O)[C@H](C)NC(=O)c1ccc(CN2CCNCC2)cc1)C(=O)N[C@@H](Cc1ccccc1)C(N)=O |
| PDE4D | cell-free assay | – | – | > 30 µM | CN(C(=O)c1ccn2ncc(-c3ccc(C(N)=O)cc3)c2c1)c1ccc(C#N)cn1 |
| Maoa (Rattus norvegicus, UniProt P21396) | enzyme activity, inhibitor | – | with: serotonin | 400 µM | O=c1cc(-c2ccc(O)c(O)c2)oc2cc(O[C@@H]3O[C@H](CO)[C@@H](O)[C@H](O)[C@H]3O)cc(O)c12 |
| AKR1B10 (Homo sapiens, UniProt O60218) | probe labelling, ELISA-ABPP competition | HEK-293T lysate, transfected | 1 h, with: compound-biotin 1 µM | 36 ± 1 µM | COc1ccc2c(c1)CCCN2C(=O)CCl |
| MAPK9 (Homo sapiens, UniProt P45984) | kinase activity, inhibitor, radiometric | – | pH 7.5, 30 °C, with: GST-c-Jun substrate | 0.092 ± 0.003 µM | CC(C)C[C@H](NC(=O)[C@H](CC(N)=O)NC(=O)[C@H](CC(C)C)NC(=O)[C@@H](NC(=O)[C@@H](NC(=O)[C@@H]1CCCN1C(=O)[C@H](CCCNC(=N)N)NC(=O)[C@H](CCCCN)NC(=O)[C@@H]1CCCN1)[C@@H](C)O)[C@@H](C)O)C(=O)N[C@@H](Cc1ccccc1)C(=O)NCCCCCC(=O)N[C@@H](CCCNC(=N)N)C(=O)N[C@@H](CCCNC(=N)N)C(=O)N[C@@H](CCCNC(=N)N)C(=O)N[C@@H](CCC(N)=O)C(=O)N[C@@H](CCCNC(=N)N)C(=O)N[C@@H](CCCNC(=N)N)C(=O)N[C@@H](CCCCN)C(=O)N[C@@H](CCCCN)C(=O)N[C@@H](CCCNC(=N)N)C(=O)NCC(N)=O |
| PDIA3 (Homo sapiens, UniProt P30101) | enzyme activity, inhibitor, absorbance | – | pH 7.6 | > 200 µM | CCCCCCCCCCCCc1ccc(S(=O)(=O)N2CC2C(=O)OC)cc1 (centres unmarked) |
| SLC7A5 (Homo sapiens, UniProt Q01650) | transporter uptake, inhibitor, radiometric | – | – | 31 µM | N[C@@H](Cc1c[nH]c2ccc(OCc3ccc(-c4ccco4)cc3)cc12)C(=O)O |
| MAP2K1 (Homo sapiens, UniProt Q02750) | enzyme activity, inhibitor | – | – | 0.062 µM | CC(C)NC1CCN(S(=O)(=O)Nc2ccc(F)c(F)c2Nc2ccc(I)cc2Cl)CC1 |
| DPP9 (Homo sapiens, UniProt Q86TI2) | enzyme activity, inhibitor, fluorescence | – | – | > 100 µM | Cn1c(=O)c(=O)n(C)c2cc(S(=O)(=O)NNC(=S)Nc3ccccc3)ccc21 |
| GLO1 (Homo sapiens, UniProt Q04760) | enzyme activity, inhibitor | – | – | 10.5 µM | NS(=O)(=O)c1ccc(/N=N/c2cc(C(=O)O)c(O)c3ccccc23)cc1 |
